Measurements gathered from unrelated publications.
Lines come from different studies, so protocols differ. ± gives the spread as reported.

`CC(C)c1cnc(-c2cc(Cl)ccc2F)cc1Nc1ccncc1C(=O)NC(CO)CO` gave a maximum inhibition of 36% (refers to: pSMAD2; 4T1 tumour-bearing mouse, tumour; 10 mg/kg twice daily; relative to: vehicle).
`CCCC[C@H](NC(=O)[C@@H](NC(=O)[C@H](CC(=O)O)NC(=O)[C@H](CCC(N)=O)NC(=O)[C@H](CC(C)C)NC(=O)[C@H](CC(C)C)NC(=O)[C@H](CCCN)NC(=O)[C@H](CCCNC(=N)N)NC(=O)[C@H](C)NC(=O)[C@H](CO)NC(=O)[C@H](CC(C)C)NC(=O)[C@H](CCC(N)=O)NC(=O)[C@H](CC)NC(=O)[C@H](CC(C)C)NC(=O)[C@@H](NC(=O)[C@H](CCCN)NC(=O)[C@H](CCCNC(=N)N)NC(=O)[C@H](Cc1ccc(O)cc1)NC(=O)[C@H](CO)NC(=O)[C@H](CCC(N)=O)NC(=O)[C@@H](NC(=O)[C@H](Cc1ccccc1)NC(=O)[C@@H](NC(=O)[C@H](C)NC(=O)[C@H](CC(=O)O)NC(=O)[C@@H](C)NC(=O)CCc1ccc(O)cc1)[C@@H](C)CC)[C@@H](C)O)C(C)C)[C@@H](C)CC)C(=O)N[C@@H](CC(=O)O)C(=O)N[C@@H](CCCNC(=N)N)C(=O)NC`: “serum GH level” 121 ± 8.4 ng/mL (GH release, ELISA; male Sprague-Dawley rat, anaesthetised, serum; subcutaneous, 3 µg/kg, 30 min).
For `CC(C)OC(=O)[C@H](CO)NCc1cc(Cl)c(OCc2cccc(-c3ccccc3)c2Br)cc1OCc1cccnc1`, “PD-L1 protein level” read “decreased” (Western blot, refers to: human PD-L1; humanized PD-1 C57BL/6 mice, hPD-L1 MC-38 tumour, tumour; dose not given).
`COc1ccc(C(=O)CSc2nnc(COCCn3c([N+](=O)[O-])cnc3C)o2)cc1F` has a DPPH scavenging of 71.98 ± 0.17% (100 µg/mL, 45 min).
`CC(=O)N[C@@H](CC(N)=O)C(=O)NCC(=O)N[C@@H](C)C(=O)N[C@@H](C)C(N)=O` — result for “rate constant succinimide to β-Asp”: 0.12 h⁻¹ (1H NMR; sodium phosphate buffer 50 mM; pH 7.4, 28 °C).
For `COc1c2c(cc3oc(CO)cc(=O)c13)O[C@H](C(C)(C)O)C2`, “ear edema weight increase” read 4.57 ± 0.33 mg (mouse, xylene ear edema; oral, 1 mg/kg).
Under “serum alkaline phosphatase”, `COc1ccc(-c2oc3ccccc3c(=O)c2OCc2ccccc2)cc1` is recorded as 193 ± 4.69 IU (diabetic rat; 7.5 mg/kg, p-nitrophenyl β-glucoside induced).
For `CCCC[C@H](NC(=O)[C@@H](NC(=O)[C@H](CC(=O)O)NC(=O)[C@H](CCC(N)=O)NC(=O)[C@H](CC(C)C)NC(=O)[C@H](CC(C)C)NC(=O)[C@H](CCCN)NC(=O)[C@H](CCCNC(=N)N)NC(=O)[C@H](C)NC(=O)[C@H](CO)NC(=O)[C@H](CC(C)C)NC(=O)[C@H](CCC(N)=O)NC(=O)[C@H](CC)NC(=O)[C@H](CC(C)C)NC(=O)[C@@H](NC(=O)[C@H](CCCN)NC(=O)[C@H](CCCNC(=N)N)NC(=O)[C@H](Cc1ccc(O)cc1)NC(=O)[C@H](CO)NC(=O)[C@H](CCC(N)=O)NC(=O)[C@@H](NC(=O)[C@H](Cc1ccccc1)NC(=O)[C@@H](NC(=O)[C@H](C)NC(=O)[C@H](CC(=O)O)NC(=O)[C@H](C)NC(=O)CCc1ccc(O)cc1)[C@@H](C)CC)[C@@H](C)O)C(C)C)[C@@H](C)CC)C(=O)N[C@@H](CC(=O)O)C(=O)N[C@@H](CCCNC(=N)N)C(=O)NCCCCC(N)=O`, “serum GH level” read 31.5 ± 3.4 ng/mL (GH release, ELISA; male Sprague-Dawley rat, anaesthetised, serum; subcutaneous, 3 µg/kg, 0 min).
`CC[C@H](C)[C@H](NC(=O)[C@H](C)NC(=O)[C@H](CS)NC(=O)[C@@H]1CCCN1)C(=O)N[C@@H](Cc1c[nH]c2ccccc12)C(=O)N[C@@H](Cc1ccccc1)C(=O)O` — result for “retinal vascular layer thickness”: 44 ± 3.9 µm (C57BL/6 mice with oxygen-induced retinopathy; intravitreal, 30 µg, P15 to P17).
For `C[C@H](NC(=O)COC(=O)[C@H](C)NC(=O)CO)C(=O)O`, “depolymerization rate constant” read 0.011 h⁻¹ (water; pH 4, 37 °C).
`CC12CC(O)C3CC1(OC1OC(CO)C(O)C(O)C1O)C3(COC(=O)c1ccccc1)C(=O)O2` (stereo not shown) gave an immobility time of 140 ± 15.6 s (tail suspension test; pseudo-germ-free mice, reserpine model; 14 mg/kg, 7 days).
For `O=c1c(OCc2ccccc2)c(-c2ccc([N+](=O)[O-])cc2)oc2ccccc12`, “serum alkaline phosphatase” read 212 ± 4.8 IU (diabetic rat; 7.5 mg/kg, p-nitrophenyl β-glucoside induced).
For `COc1ccc2c(c1)c(CC(=O)OCC(=O)c1ccccc1)c(C)n2C(=O)c1ccc(Cl)cc1`, the writhing count was 10.8 ± 1.68 (BALB/c mice, acetic acid writhing; intraperitoneal, 20 mg/kg, 20 min count).
For `O=C(O)c1ccc(/C=C2\SC(=S)N(Cc3cccc(C(F)(F)F)c3)C2=O)cc1`, “fasting blood glucose” read “decreased” (wild-type mouse, high-fat diet, blood; 2.5 mg/kg once daily, 6 weeks).
Under “DPPH radical scavenging”, `CCCCCCCCCCCCCCc1sc(NC(=O)CN2CCC(O)CC2)nc1-c1ccccc1` is recorded as 29.8% (0.1 mM, 1 h).
For `C[C@H](NC(=O)CNC(=O)[C@H](CCC(=O)O)NC(=O)[C@H](CCC(=O)O)NC(=O)[C@H](CC(=O)O)NC(=O)[C@@H]1CCCN1C(=O)[C@H](Cc1ccccc1)NC(=O)[C@H](CS)NC(=O)[C@H](Cc1ccc(O)cc1)NC(=O)CCCNC(=O)CNC(=O)CNC(=O)[C@@H](C)NC(=O)CN)C(=O)N[C@@H](CS)C(=O)N[C@@H](Cc1ccc(O)cc1)C(N)=O` [technetium-99m labelled], “tumour to non-tumour ratio” read 5.18 (SPECT; BALB/c nude mouse, SKBR3 tumour; intravenous, 37 MBq, 120 min).
For `CCCOC(=O)Cc1c(C)n(C(=O)c2ccc(Cl)cc2)c2ccc(OC)cc12`, the analgesia was 58.6% (acetic acid writhing test; BALB/c mouse; intraperitoneal, 10 mg/kg; relative to: negative control).
`COC(=O)c1ccc(-n2nc(C(F)(F)F)cc2-c2cc(OC)c(OC)c(OC)c2)cc1` has an IC50 of 39 µM (tubulin polymerisation, inhibitor, absorbance).
For `CCCC[C@H](NC(=O)[C@@H](NC(=O)[C@H](CC(=O)O)NC(=O)[C@H](CCC(N)=O)NC(=O)[C@H](CC(C)C)NC(=O)[C@H](CC(C)C)NC(=O)[C@H](CCCN)NC(=O)[C@H](CCCNC(=N)N)NC(=O)[C@H](C)NC(=O)[C@H](CO)NC(=O)[C@H](CC(C)C)NC(=O)[C@H](CCC(N)=O)NC(=O)[C@H](CC)NC(=O)[C@H](CC(C)C)NC(=O)[C@@H](NC(=O)[C@H](CCCN)NC(=O)[C@H](CCCNC(=N)N)NC(=O)[C@H](Cc1ccc(O)cc1)NC(=O)[C@H](CO)NC(=O)[C@H](CC(N)=O)NC(=O)[C@@H](NC(=O)[C@H](Cc1c(F)c(F)c(F)c(F)c1F)NC(=O)[C@@H](NC(=O)[C@H](C)NC(=O)[C@H](CC(=O)O)NC(=O)[C@@H](C)NC(=O)CCc1ccc(O)cc1)[C@@H](C)CC)[C@@H](C)O)C(C)C)[C@@H](C)CC)C(=O)N[C@@H](CO)C(=O)N[C@@H](CCCNC(=N)N)C(=O)NCCCC(N)=O`, “serum GH level” read 61.7 ± 8.1 ng/mL (GH release, ELISA; male Sprague-Dawley rat, anaesthetised, serum; subcutaneous, 3 µg/kg, 0 min).
`O=[N][Fe]1([N]=O)[S](CCO)[Fe]([N]=O)([N]=O)[S]1CCO` — result for protein level: “increased” (western blot, refers to: BrdU; aged C57BL/6JNarl mice on Western diet, hippocampus; dose not given; relative to: Western diet alone).
`COc1ccc2c(c1)c(CC(=O)OCC(=O)OC(C)(C)C)c(C)n2C(=O)c1ccc(Cl)cc1` gave a writhing count of 16.5 ± 1.65 (BALB/c mice, acetic acid writhing; intraperitoneal, 10 mg/kg, 20 min count).
For `COc1ccc(C2CC(c3ccc(C)cc3)=Nc3ccccc3S2)cc1OC` (stereo not shown), the blood glucose was 188 mg/dL (Wistar rat, STZ-induced diabetes; oral, 10 mg/kg once daily, day 14).

Some of these lines once more:
`COC(=O)c1ccc(-n2nc(C(F)(F)F)cc2-c2cc(OC)c(OC)c(OC)c2)cc1` has an IC50 of 39 µM (tubulin polymerisation, inhibitor, absorbance).
